{"data": "Assay results pooled from the literature", "note": "Every numbered part comes from another study and shows a few of its results, in no order. “And” joins repeats or separate records; there may be more than shown."}
{"data": "Series 1", "target": "Serine/threonine-protein kinase 33 (STK33, Homo sapiens, UniProt Q9BYT3)", "read-out": "enzyme activity", "mode": "inhibitor", "method": "radiometric", "concentration": "0.5 µM", "chain of UniProt Q9BYT3 (whole entry, looked up)": "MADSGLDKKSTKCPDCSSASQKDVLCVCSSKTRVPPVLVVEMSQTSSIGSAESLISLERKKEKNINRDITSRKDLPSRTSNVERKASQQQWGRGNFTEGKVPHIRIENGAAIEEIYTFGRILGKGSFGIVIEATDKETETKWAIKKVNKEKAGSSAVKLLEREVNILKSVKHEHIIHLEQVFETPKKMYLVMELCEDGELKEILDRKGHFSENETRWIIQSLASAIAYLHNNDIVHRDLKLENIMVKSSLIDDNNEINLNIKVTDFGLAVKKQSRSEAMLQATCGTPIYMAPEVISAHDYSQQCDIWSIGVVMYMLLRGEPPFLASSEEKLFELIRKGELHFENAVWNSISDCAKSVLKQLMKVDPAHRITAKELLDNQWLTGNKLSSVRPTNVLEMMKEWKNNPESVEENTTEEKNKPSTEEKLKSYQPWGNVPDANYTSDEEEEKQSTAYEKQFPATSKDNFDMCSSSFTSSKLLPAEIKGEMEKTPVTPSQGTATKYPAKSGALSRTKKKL"}
{"SMILES": "N#Cc1cnc2cnc(NCc3cccnc3)cc2c1Nc1ccc(F)c(Cl)c1", "remaining activity": "87.4%"}
{"SMILES": "O=C1Cc2c([nH]c3ccc(Br)cc23)-c2ccccc2N1", "remaining activity": "103%"}
{"SMILES": "CCCNC(=O)Nc1ccc(Oc2ncnc3cc(OC)c(OC)cc23)cc1Cl", "remaining activity": "88.1%"}
{"data": "Series 2", "target": "Calcium/calmodulin-dependent protein kinase type II subunit alpha (CAMK2A, Homo sapiens, UniProt Q9UQM7)", "read-out": "enzyme activity", "mode": "inhibitor", "concentration": "10 µM", "chain of UniProt Q9UQM7 (whole entry, looked up)": "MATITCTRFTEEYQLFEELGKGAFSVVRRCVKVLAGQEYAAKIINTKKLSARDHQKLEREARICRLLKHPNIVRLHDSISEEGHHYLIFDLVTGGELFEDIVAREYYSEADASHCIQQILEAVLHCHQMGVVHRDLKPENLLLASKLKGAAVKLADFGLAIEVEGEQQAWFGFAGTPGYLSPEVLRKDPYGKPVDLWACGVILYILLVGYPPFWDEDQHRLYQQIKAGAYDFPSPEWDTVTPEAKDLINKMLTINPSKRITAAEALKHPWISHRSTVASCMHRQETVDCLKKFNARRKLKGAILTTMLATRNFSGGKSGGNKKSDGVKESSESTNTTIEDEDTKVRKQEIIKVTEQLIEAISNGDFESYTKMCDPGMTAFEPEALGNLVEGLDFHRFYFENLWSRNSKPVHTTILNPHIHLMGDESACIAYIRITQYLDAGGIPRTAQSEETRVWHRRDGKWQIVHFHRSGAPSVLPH"}
{"SMILES": "CC(C)=CCC[C@@](C)(O)[C@H]1CC[C@]2(C)[C@@H]1[C@H](O)C[C@@H]1[C@@]3(C)CC[C@H](O)C(C)(C)[C@@H]3[C@@H](O[C@@H]3O[C@H](CO)[C@@H](O)[C@H](O)[C@H]3O)C[C@]12C", "inhibition": "28%"}
{"SMILES": "C[C@]12CC[C@@H](O)C[C@H]1CC[C@@H]1[C@@H]2CC[C@]2(C)C(=O)CC[C@@H]12", "inhibition": "-57%"}
{"SMILES": "C/C=C1\\C[C@@H](C)[C@](O)(CO)C(=O)OCC2=CC[N+]3([O-])CC[C@@H](OC1=O)[C@@H]23 (stereo partly shown)", "inhibition": "-26%"}
{"data": "Series 3", "target": "CRBN/Zinc finger protein Helios (Homo sapiens, UniProt Q96SW2+Q9UKS7)", "mode": "degrader", "method": "HiBiT", "cell line": "HEK293", "concentration": "370.37 nM", "chain of UniProt Q96SW2 (whole entry, looked up)": "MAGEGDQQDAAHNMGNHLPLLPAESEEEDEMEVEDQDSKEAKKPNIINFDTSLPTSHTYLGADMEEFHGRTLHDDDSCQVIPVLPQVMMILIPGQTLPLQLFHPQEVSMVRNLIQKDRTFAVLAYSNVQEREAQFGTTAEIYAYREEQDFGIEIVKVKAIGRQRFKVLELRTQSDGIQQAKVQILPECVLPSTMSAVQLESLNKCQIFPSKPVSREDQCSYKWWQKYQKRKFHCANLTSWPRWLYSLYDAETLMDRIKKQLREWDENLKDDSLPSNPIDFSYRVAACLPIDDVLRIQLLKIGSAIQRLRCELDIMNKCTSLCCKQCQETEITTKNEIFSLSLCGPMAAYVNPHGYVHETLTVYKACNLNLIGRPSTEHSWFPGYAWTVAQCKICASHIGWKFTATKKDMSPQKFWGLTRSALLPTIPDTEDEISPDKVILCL", "chain of UniProt Q9UKS7 (whole entry, looked up)": "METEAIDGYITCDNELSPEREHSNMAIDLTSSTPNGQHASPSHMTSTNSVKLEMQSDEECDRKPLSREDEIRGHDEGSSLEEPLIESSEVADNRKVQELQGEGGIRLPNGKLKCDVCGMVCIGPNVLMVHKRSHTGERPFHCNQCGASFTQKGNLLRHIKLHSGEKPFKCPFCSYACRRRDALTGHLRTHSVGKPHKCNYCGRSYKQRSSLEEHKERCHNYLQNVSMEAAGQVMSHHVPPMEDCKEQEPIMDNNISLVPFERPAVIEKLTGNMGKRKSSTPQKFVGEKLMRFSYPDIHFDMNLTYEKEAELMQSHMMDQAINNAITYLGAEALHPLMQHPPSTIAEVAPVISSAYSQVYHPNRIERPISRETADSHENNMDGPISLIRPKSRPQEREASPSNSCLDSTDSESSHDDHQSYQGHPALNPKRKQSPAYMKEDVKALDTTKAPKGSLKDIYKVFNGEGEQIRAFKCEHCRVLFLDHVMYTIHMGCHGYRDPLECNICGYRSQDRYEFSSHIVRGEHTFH"}
{"Structure (SMILES)": "O=C1CCC(N2Cc3c(ccc4c3OCC43CCCN(Cc4ccccc4)CC3)C2=O)C(=O)N1 (stereo not shown)", "protein remaining": "92.9%"}
{"Structure (SMILES)": "O=C1CCC(N2Cc3c(ccc4c3OCC43CCN(Cc4ccccc4)CC3(F)F)C2=O)C(=O)N1 (stereo not shown)", "protein remaining": "46.7%"}
{"Structure (SMILES)": "O=C1CCC(N2Cc3c(ccc4c3OCC43CCN(Cc4ccccc4)C3)C2=O)C(=O)N1 (stereo not shown)", "protein remaining": "73.7%"}
{"data": "Series 4", "Compound": "CC(C)S(=O)(=O)c1cc2c(Nc3ccc4sc(C5CCCC5)nc4c3)ccnc2cc1OCCO"}
{"cell line": "L929 RIPK3 knockout", "conditions": "25 µM", "viability": "69.4% and 75.1% and 74.6% and 72.7% and 72.6%"}
{"cell line": "L929 RIPK3 knockout", "conditions": "1.563 µM", "viability": "98% and 97.5% and 90.7% and 92.6% and 100%"}
{"cell line": "L929 RIPK3 knockout", "conditions": "25 µM, with: zVAD", "viability": "68.7% and 69.4% and 73.3% and 73.1% and 75%"}
{"cell line": "L929 RIPK3 knockout", "conditions": "100 µM", "viability": "18.2% and 18.3% and 11.2% and 11.1%"}
{"cell line": "L929", "test": "CCK-8", "conditions": "6.25 µM, with: zVAD", "viability": "90.1% and 92.5% and 97.6% and 96.4% and 88.7%"}
{"cell line": "L929", "test": "necroptosis protection, CCK-8", "conditions": "1.25 µM, with: TNF-α plus zVAD", "viability": "103%"}
{"cell line": "L929", "test": "CCK-8", "conditions": "6.25 µM", "viability": "90.8% and 93.7% and 97% and 85.9%"}
{"cell line": "L929", "test": "CCK-8", "conditions": "25 µM, with: zVAD", "viability": "78.3% and 60.2% and 61.5% and 60.3% and 59.4%"}
{"cell line": "L929", "test": "CCK-8", "conditions": "1.563 µM", "viability": "100% and 95.8% and 99.5% and 97.7% and 94.9%"}
{"cell line": "L929", "test": "necroptosis protection, CCK-8", "conditions": "5 µM, with: TNF-α plus zVAD", "viability": "102%"}
{"cell line": "L929 RIPK3 knockout", "conditions": "12.5 µM", "viability": "81.4% and 84.5% and 88.9% and 84.6% and 83.6%"}
{"data": "Single results of other studies"}
{"SMILES": "Oc1ccc(C2NCc3ccccc3-n3cccc32)cc1Cl (stereo not shown)", "test system": "human, microsomes or S9", "conditions": "2 µM, 0.5 h", "measurement": "remaining compound", "result": "60.2%"}
{"SMILES": "Cc1sc2c(c1C)C(c1ccc(Cl)cc1)=N[C@@H](CC(=O)OC(C)(C)C)c1nnc(C)n1-2", "target or system": "mouse MPNST tumor cells", "test": "high-content nuclear imaging, refers to: cell number", "conditions": "10 µM, 12 h, mean of 2 replicates", "scale": "relative to: plate mean, higher = more cells", "measurement": "nuclei count", "result": "-1.99 z-score"}
